# Measured values gathered from unrelated publications.
# Numbered parts are unrelated; each lists some results of a single study.

# Sample 1 — technique: protein binding microarray; form: double-stranded DNA, one strand shown; sample: in vitro; tested at: not given; reference: not given; direction: higher = stronger binding
# Target: Histone acetyltransferase KAT6A, winged helix 2, GST fusion (KAT6A, Homo sapiens, UniProt Q92794, residues 85-181)
# Notes: 8-mer, flanks averaged, mean of 2 arrays, mostly near background
# Construct (chain): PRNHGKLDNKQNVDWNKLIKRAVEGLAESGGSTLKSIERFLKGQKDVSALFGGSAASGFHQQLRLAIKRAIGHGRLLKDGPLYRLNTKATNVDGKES
Sequence,E-score
GAAGCGAC,0.054
ATTCTCGG,0.0312
AACGTGCT,-0.172
GTTATCAA,-0.0112
CTCTGAGA,-0.139
GCGCAACC,0.097
GCACTGGA,0.0645
CTACATGA,-0.0185
ATCCGCGC,0.125
AGTGCACA,-0.0347
CACACCGC,0.0942
ATCGAAAA,0.176
GAAGTACC,-0.0753
ACGAGGCA,-0.0216
ATTTACAG,0.087
GATAAGGA,0.00576
ATGGTTAC,-0.0659
ATATTATG,0.0835
AACCTGTA,-0.138

# Sample 2 — technique: universal PBM; form: double-stranded DNA, one strand shown; sample: in vitro; tested at: not given; direction: higher = stronger binding
# Target: Sal-like protein 4, full length isoform B (SALL4, Homo sapiens, UniProt Q9UJQ4-2, residues 1-616)
# Notes: 8-mer, flanks averaged, mean of replicates
# Residues (chain): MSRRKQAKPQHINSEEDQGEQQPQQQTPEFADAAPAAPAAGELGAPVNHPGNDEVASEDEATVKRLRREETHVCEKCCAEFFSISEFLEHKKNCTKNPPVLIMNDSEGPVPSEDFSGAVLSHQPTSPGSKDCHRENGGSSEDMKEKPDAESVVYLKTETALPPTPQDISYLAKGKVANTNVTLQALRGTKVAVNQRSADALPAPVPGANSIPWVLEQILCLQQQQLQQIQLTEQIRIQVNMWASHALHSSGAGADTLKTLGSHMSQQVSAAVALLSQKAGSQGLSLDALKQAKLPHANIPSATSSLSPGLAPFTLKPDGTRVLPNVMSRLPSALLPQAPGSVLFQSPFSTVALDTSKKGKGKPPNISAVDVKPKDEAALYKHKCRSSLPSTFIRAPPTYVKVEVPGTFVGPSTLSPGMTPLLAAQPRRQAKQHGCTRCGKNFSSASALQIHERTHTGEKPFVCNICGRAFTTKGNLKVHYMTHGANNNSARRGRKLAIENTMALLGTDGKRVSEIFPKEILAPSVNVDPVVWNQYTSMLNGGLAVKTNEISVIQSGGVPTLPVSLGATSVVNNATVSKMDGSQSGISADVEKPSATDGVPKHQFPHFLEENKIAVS
Sequence,E-score
CCTAATAA,0.324
ACGGCGGG,-0.245
ACATCTGG,0.0729
CGGGTCTC,-0.397
AGTAACGA,0.133
CACTAGTC,-0.156
AAACATGC,0.0283
CTTAAAAG,0.106
AATCCCCA,-0.168
AAGGCAGT,0.0555
ACGGCTGG,-0.288
CCACATTC,-0.0433
CCTATATC,0.18
AGAACACC,-0.0709
CGGGGCAA,-0.185
CGGTAATA,0.265
AGTTTGGG,0.0787
ATATCGAC,0.206
ATTTTTTG,0.314
CTTGTTCC,0.0358
GGCAAGAC,-0.0672
GCAGGCAC,-0.289
AGAGGAAG,-0.186

# Sample 3 — technique: RNA Bind-n-Seq; form: RNA; sample: in vitro; tested at: 365 nM; reference: no-protein control; direction: higher = stronger binding
# Target: RNA binding protein fox-1 homolog 2, RRM domain, GST-SBP tag (RBFOX2, Homo sapiens, UniProt O43251-10, residues 100-194)
# Notes: natural RNA segment, single round, ends assumed
# Residues (chain): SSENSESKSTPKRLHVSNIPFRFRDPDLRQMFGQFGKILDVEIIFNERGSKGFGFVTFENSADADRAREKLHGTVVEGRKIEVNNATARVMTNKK
Sequence,RBNS enrichment (R)
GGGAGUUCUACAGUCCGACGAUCCCAGGACCACAGCUCUGUUCCUUCGGCCUCUGGUCCUCUCUGGUCCCCUCCUGGGUUUCUUACGUAGUUGAUUUUUCCUCUUUAGUCUCCCCCGACCUGCGCCCAGCCCCUGGAAUUCUCGGGUGCCAA,0.416
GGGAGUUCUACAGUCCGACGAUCUGUGAGAAUGCAGUAAGGGGGCUGCCAGCUCUCUUCUCCCUCAGACCAUUGUCUCCCCGCUGAACUCGGCUGCCUUGCCACCGAGGUGCCAGCCAGGCUAGAGGAGUGCCUGGAAUUCUCGGGUGCCAA,0.739
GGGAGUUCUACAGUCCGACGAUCUUGUAGGAGGACAUAUAAUUCAUAUGCUAUGUUGUACAUUUUAUGGAAAUAUAAAAGAAUCCCACAUUAUUUUAUAGAGUACUUCAGGAGCAUCCUAAGUGUUAAGGCUGUGGAAUUCUCGGGUGCCAA,0.35
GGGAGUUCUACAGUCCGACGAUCUGGCUAUUGCCAAUUCCCCACUGCAAAGGGGAAGGCAGAUUUUAUGAAGAGUUUUAGGAAUAAAUACAUUUUAUAGAAUGGAAACCCAGUAUGGUACUGGGGAAGUUUAUUGGAAUUCUCGGGUGCCAA,0.467
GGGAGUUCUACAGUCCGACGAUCGUGUGUGUGCUCGCGAGCGCCAUCCACACUGGUCCUUUAGCAUUGUUUCCAUCAUAUUGCAGUGUAUGUGGGAUUUUCUGUAAAAUGGGUGUAAUUUUUCCCUUAAAAAGUGGAAUUCUCGGGUGCCAA,0.54
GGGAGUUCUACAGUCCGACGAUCGGCUGGCUAAUGCCAGCUCUCGGGGGCAGACUGGCUAGGUGUUUGUCCCUUGCACCCUAUGAUUAUUCUCAUGCUGCACUUACUGUUUACAUUUGUUUUAUUGUACAUAGUGGAAUUCUCGGGUGCCAA,0.87
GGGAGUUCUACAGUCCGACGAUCUGCUACCAAUGCAGAUAAACGCGGCUUGUUUUACUCAGGCAAGAGAAUGUGAAUAGUGCCAAGAAAAUCCUUUACAUUAUUUAAUAAAAAUUGAAUCCAUUUUCUAUCUUUGGAAUUCUCGGGUGCCAA,0.254
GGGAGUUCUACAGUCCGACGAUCUGGUCUCAAACUCCUAAGGUCAUCCACCUGCCUCGGCCUCCCAGAGUGCUGAGAUUACAGGCGUGAGCCUCCGCGCCCGGCCCCCUUGCAGUUCUCUCUGAUUUGGUUUGUGGAAUUCUCGGGUGCCAA,0.373
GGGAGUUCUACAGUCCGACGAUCCUGAGCCGCUGACUCUUCUGGCAAAAAUUCUGUUGGGAUUUAAGGCCAAGGGUCAGUGGGUGGCAGGGGGCUGACAAUGAGCUUGUGUGUUGUUGGUCUGCUUGGUGUGUUGGAAUUCUCGGGUGCCAA,1.31
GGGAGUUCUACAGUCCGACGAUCAACUUAAGAAGAAAGCUUCCCUCUUCUGACAUCCCUGCCGGCUCGGCUCGAUUCGGCUCGCCCUGUCCGUGACAGUACCUUCCUUCUGCUGCUUCGAGGCCCUGAAGCUGUGGAAUUCUCGGGUGCCAA,0.274
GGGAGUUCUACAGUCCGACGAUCGCACACAAAUGGACUUCUCUGAAGCUGUGUUUAGUGAAAUGAGCUCAAGUACAUGAAUGUUAGUUGUUAUCACAUACAGCAAAUUCCUUUUUUUUUCUUUUUCUAUGAGCUGGAAUUCUCGGGUGCCAA,2.49
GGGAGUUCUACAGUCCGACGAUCAAUUUUUUUCAUAUGUAUUCUGUGCCAUACUAUUGUUAAAAUGAACUGUUGCUAUUGUGAGAUGGAUUUUAACUGACCUAUUAAGGGUUUCUUUCGAAUGGCACUACUUUUGGAAUUCUCGGGUGCCAA,0.629

# Sample 4 — technique: protein-binding microarray; form: double-stranded DNA, one strand shown; sample: in vitro; tested at: not given; direction: higher = stronger binding
# Target: Max dimerization protein 1, bHLH-zipper, MAX partner unstated (MXD1, Homo sapiens, UniProt Q05195, residues 56-136)
# Notes: k-mer, scored over probes, only values ≥0.25
# Target sequence (chain): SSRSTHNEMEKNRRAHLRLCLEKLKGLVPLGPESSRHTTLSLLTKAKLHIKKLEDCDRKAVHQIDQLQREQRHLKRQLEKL
Sequence,E-score
ACATGGGG,0.438
CACGTTTC,0.401
CATGTCGG,0.301
ACATGTCT,0.302
GCATGTCA,0.343
CAATCATG,0.26
ACATGATC,0.359
ACAACCCC,0.266
ACACGCCC,0.28
CGTGGAAG,0.312
AGCGTGTG,0.348
ACATGACA,0.291
ATGTTGTC,0.264
CATGCACA,0.396
CACGGGGG,0.398
AGCGTGGG,0.352
ACACGTTA,0.394
GCACATGC,0.46
CACGCACC,0.316
ACGAGGGG,0.334
ACGCGTGA,0.327
GCACGTGC,0.497
AGCATGCA,0.395
CGAGCACG,0.353
